Results pooled from the literature.
Every numbered part comes from another study and shows a few of its results, in no order.

Series 1 — method: RNA Bind-n-Seq; molecule type: RNA; sample: in vitro; tested at: 365 nM; baseline: no-protein control; direction: higher = stronger binding
Target: RNA binding protein fox-1 homolog 2, RRM domain, GST-SBP tag (RBFOX2, Homo sapiens, UniProt O43251-10, residues 100-194)
Notes: natural RNA segment, single round, ends assumed
Target sequence (chain): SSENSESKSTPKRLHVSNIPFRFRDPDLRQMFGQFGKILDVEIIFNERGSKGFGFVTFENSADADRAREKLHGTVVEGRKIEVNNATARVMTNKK
Sequence | RBNS enrichment (R)
GGGAGUUCUACAGUCCGACGAUCUUAUCAUCGCCAAAAGGAACGGACUGUGCACUAGAGACUUGCAGCCCACAGCCUUCCGUGUGGGAUCUGCCAGGACAAGCUGGCUAGACCUCUGAGAAGUUGGAGAAGUCUGGAAUUCUCGGGUGCCAA | 0.284
GGGAGUUCUACAGUCCGACGAUCGGGGAAUGGGGGCCCCAGGACAGCAUCAGGACUUUUGAGUCCAGCUGCCAGCAAUGGUUCCAACUCGGAGGCAGCGCCUCUUGGUCCCCAUUUCUGUAUAGCAGGCGUGUUGGAAUUCUCGGGUGCCAA | 0.409
GGGAGUUCUACAGUCCGACGAUCAUUAAUUUUAAAAGUCAAUCACUAAGAGCAUCGGCUUUGGGCCCUGAUGGGCAGGCAUUUCCCUGGAAAGGGGGUGAACUACCUACCUCUCCUCAAGACAGCCGAAGGGUUGGAAUUCUCGGGUGCCAA | 0.227

Series 2 — method: universal PBM; molecule type: double-stranded DNA, one strand shown; sample: in vitro; tested at: not given; direction: higher = stronger binding
Target: Sal-like protein 4, full length isoform B (SALL4, Homo sapiens, UniProt Q9UJQ4-2, residues 1-616)
Notes: 8-mer, flanks averaged, mean of replicates
Sequence | E-score
GAAGATTC | 0.095
AATGCCCT | -0.055
ACTACACC | 0.0723
TCAACTGA | 0.0245

Series 3 — method: protein-binding microarray; molecule type: double-stranded DNA, one strand shown; sample: in vitro; tested at: 0.8 µM; notes: whole 60-bp probe, no competitor; direction: higher = stronger binding
Target: Centromere-binding protein 1, full length, N-terminal tag (CBF1, Saccharomyces cerevisiae, UniProt P17106, residues 1-351)
Chain of UniProt P17106 (whole entry, looked up): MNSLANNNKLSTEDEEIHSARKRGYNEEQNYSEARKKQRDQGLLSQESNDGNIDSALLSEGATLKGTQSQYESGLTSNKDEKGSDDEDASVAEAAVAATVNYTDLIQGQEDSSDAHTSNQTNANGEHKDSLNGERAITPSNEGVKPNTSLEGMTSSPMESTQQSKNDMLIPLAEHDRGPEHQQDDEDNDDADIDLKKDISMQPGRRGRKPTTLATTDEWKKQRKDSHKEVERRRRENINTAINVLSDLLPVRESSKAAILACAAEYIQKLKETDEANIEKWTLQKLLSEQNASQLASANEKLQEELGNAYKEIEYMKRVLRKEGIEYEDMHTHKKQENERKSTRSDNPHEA
Sequence | fluorescence intensity
GAAGCCATTTGCAGACACGTTTTTACTATATTTTAGGTCTTGATTCGCTTGACGCTGCTG | 762 a.u.
TGTACGAAGCTATCTCATCAGACTATAGTAGTTAGGGTCTTGATTCGCTTGACGCTGCTG | 544 a.u.
CTATTTTTGCTTCACGTGTATATATATCAGTTGTTCGTCTTGATTCGCTTGACGCTGCTG | 5090 a.u.
GAAAGGTAGCCGGAAAACGCACGAATCTAAGACTAGGTCTTGATTCGCTTGACGCTGCTG | 478 a.u.

Mixed results
Substance | target | test | system | conditions | scale | endpoint | result
PhoQ, residues 284 288 289 292 302 303 MLMVEA | PhoP, residues 12 14 15 18 19 FWNTL (Escherichia coli, UniProt P23836) | Sort-seq, item: YFP reporter | E. coli | PhoQ-PhoP variant library, together with: 10 µM Mg2+ | baseline: high Mg2+ state, higher = stronger signaling | fold induction | 17.7

Some of these lines once more (series 1):
Sequence | RBNS enrichment (R)
GGGAGUUCUACAGUCCGACGAUCGGGGAAUGGGGGCCCCAGGACAGCAUCAGGACUUUUGAGUCCAGCUGCCAGCAAUGGUUCCAACUCGGAGGCAGCGCCUCUUGGUCCCCAUUUCUGUAUAGCAGGCGUGUUGGAAUUCUCGGGUGCCAA | 0.409
GGGAGUUCUACAGUCCGACGAUCAUUAAUUUUAAAAGUCAAUCACUAAGAGCAUCGGCUUUGGGCCCUGAUGGGCAGGCAUUUCCCUGGAAAGGGGGUGAACUACCUACCUCUCCUCAAGACAGCCGAAGGGUUGGAAUUCUCGGGUGCCAA | 0.227
